# Assay results gathered from unrelated publications.
# Parts stem from different laboratories: compare values within a part only. “And” joins repeats or separate records; there may be more than shown.
# Sequence of UniProt P48730 (whole entry, looked up): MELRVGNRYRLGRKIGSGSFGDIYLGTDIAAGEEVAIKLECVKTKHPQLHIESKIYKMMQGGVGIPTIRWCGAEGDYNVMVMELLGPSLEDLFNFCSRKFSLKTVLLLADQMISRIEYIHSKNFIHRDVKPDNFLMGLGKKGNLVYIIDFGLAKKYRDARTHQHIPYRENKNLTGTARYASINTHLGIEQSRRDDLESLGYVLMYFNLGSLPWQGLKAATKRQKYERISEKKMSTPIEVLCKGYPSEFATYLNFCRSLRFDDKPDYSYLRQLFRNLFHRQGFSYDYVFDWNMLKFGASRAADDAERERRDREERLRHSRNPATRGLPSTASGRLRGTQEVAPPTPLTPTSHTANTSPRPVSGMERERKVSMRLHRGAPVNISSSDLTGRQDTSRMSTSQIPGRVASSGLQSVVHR
# Sequence of UniProt P51812 (whole entry, looked up): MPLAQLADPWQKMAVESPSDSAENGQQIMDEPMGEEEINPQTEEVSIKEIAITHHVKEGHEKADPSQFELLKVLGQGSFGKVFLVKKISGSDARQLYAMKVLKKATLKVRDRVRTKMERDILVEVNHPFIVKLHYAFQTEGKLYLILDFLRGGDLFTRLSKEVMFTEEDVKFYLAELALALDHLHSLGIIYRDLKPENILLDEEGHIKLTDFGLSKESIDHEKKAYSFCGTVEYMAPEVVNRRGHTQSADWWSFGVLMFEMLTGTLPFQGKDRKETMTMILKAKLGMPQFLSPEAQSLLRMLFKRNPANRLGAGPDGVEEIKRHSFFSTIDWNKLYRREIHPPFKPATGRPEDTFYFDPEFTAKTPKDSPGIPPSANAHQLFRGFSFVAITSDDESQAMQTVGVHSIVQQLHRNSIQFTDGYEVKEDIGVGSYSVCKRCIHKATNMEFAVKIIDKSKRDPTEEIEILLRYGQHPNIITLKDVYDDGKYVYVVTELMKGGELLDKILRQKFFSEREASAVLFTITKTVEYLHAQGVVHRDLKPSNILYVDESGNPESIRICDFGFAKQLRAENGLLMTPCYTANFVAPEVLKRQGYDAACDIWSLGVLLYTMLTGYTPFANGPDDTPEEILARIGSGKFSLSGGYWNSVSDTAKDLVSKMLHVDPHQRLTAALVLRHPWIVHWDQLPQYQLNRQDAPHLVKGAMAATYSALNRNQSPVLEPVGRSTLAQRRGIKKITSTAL
# Sequence of UniProt P42680 (whole entry, looked up): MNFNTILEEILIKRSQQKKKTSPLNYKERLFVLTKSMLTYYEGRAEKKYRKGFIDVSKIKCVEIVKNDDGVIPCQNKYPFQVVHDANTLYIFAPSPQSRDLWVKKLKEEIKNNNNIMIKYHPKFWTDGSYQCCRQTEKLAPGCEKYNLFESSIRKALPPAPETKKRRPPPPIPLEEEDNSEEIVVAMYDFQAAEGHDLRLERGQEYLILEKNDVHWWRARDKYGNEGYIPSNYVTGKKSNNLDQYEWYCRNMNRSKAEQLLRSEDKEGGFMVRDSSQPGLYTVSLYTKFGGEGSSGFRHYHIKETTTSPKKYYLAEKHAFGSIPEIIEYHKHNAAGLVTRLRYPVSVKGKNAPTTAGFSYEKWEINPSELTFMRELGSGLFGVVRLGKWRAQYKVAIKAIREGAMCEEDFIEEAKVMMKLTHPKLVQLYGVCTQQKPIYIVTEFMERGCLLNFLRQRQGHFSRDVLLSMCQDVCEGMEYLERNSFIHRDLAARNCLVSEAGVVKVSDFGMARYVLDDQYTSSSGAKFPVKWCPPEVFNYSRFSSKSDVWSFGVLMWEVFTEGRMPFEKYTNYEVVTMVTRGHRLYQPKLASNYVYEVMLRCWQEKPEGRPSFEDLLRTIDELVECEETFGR
# Sequence of UniProt P29597 (whole entry, looked up): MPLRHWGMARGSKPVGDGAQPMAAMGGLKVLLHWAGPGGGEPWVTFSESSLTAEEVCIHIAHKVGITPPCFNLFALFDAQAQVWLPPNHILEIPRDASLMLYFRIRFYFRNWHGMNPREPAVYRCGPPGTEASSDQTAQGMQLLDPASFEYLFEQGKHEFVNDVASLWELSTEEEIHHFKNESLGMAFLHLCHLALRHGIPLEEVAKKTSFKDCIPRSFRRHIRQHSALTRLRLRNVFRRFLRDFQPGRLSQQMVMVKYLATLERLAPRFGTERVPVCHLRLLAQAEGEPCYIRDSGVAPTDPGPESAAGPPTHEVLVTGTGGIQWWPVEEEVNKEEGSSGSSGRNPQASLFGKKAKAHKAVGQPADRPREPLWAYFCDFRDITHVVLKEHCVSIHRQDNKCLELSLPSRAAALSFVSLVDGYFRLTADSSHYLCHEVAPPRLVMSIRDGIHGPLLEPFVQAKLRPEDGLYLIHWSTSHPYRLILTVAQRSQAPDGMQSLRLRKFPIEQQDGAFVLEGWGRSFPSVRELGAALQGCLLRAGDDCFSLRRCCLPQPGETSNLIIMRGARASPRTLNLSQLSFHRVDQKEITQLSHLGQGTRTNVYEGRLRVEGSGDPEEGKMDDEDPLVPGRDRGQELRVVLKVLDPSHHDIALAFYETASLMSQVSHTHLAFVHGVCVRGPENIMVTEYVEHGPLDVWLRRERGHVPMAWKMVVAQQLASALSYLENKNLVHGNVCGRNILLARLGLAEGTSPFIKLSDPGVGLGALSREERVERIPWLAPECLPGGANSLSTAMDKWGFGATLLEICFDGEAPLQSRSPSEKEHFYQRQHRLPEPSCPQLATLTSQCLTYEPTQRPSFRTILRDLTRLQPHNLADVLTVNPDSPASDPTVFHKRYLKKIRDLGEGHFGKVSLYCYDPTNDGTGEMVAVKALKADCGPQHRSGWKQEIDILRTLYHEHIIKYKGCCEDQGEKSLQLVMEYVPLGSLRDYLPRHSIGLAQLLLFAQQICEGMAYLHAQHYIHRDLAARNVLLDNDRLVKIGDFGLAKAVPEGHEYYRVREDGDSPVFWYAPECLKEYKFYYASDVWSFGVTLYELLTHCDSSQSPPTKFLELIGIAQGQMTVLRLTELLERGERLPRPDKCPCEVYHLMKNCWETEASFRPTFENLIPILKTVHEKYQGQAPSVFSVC
# Sequence of UniProt Q14012 (whole entry, looked up): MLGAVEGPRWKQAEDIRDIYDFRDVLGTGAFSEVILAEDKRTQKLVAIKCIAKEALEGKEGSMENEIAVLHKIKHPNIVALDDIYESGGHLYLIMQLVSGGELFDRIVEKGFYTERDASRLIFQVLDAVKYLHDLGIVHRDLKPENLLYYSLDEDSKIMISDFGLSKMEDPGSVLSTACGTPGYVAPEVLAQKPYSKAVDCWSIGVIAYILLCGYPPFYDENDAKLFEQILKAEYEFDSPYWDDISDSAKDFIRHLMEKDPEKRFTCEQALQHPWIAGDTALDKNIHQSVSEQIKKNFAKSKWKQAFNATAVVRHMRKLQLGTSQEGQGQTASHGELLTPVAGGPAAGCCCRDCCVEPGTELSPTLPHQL
# Sequence of UniProt P49674 (whole entry, looked up): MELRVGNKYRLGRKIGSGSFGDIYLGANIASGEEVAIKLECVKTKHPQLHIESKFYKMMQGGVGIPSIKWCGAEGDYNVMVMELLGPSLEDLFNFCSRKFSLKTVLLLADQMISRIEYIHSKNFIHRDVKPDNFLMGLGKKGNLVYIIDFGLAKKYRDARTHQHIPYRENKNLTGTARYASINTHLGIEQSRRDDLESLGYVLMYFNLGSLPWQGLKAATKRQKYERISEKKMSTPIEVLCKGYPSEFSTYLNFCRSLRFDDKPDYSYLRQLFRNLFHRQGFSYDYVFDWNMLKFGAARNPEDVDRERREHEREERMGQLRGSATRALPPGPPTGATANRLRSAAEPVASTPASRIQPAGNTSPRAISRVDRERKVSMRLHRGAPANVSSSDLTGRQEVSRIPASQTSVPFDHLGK
# Sequence of UniProt Q07912 (whole entry, looked up): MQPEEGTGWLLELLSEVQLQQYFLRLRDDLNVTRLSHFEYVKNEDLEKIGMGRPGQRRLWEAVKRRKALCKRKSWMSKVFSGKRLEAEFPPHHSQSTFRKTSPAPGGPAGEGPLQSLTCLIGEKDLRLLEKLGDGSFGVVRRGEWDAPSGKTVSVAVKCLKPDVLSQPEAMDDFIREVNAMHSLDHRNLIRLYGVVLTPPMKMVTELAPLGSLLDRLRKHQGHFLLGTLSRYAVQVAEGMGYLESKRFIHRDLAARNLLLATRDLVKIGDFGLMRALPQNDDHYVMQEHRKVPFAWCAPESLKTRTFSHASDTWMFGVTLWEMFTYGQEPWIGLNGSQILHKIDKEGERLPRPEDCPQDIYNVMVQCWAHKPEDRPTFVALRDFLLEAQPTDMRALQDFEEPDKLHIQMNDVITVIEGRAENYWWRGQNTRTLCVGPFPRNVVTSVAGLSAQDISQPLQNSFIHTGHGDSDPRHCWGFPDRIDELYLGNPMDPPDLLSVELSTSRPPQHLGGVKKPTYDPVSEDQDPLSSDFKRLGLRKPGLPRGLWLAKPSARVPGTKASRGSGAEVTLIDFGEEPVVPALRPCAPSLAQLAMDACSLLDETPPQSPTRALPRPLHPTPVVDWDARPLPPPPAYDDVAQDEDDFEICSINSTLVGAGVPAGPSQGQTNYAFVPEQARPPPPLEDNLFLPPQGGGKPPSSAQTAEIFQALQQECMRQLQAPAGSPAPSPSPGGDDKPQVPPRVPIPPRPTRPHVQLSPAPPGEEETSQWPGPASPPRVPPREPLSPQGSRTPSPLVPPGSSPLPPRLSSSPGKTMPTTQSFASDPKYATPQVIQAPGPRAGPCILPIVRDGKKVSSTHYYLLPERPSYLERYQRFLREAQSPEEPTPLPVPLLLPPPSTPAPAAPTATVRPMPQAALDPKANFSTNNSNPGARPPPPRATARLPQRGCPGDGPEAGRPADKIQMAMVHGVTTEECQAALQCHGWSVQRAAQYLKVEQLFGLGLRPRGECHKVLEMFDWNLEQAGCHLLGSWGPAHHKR

# Series 1
# Cell line: normal organoid sample H
# Method: CellTiter-Glo
# Host: human
# Matrix: normal-adjacent epithelium
# Tested at: 0.1 µM
# Baseline: DMSO
Structure (SMILES),viability
COc1ccc2cc(OCC3(C(=O)O)CN(C(=O)c4ccc(F)cc4)C3)ccc2c1,109% and 117%
CCCOc1ccc([C@H]2[C@H](C(=O)O)[C@@H](c3ccc4c(c3)OCO4)CN2CC(=O)Nc2c(CC)cccc2CC)cc1,129% and 128%
Nc1cnc(N2CCc3cc(S(=O)(=O)Nc4c(F)cc(Cl)cc4F)cc(N4CCCC4=O)c32)nc1,98.5% and 89.2%
O=C(Nc1ccc(Oc2ccc(F)cc2)cc1)N1CCc2ncccc2[C@H]1c1ccc(F)cc1,102% and 113%
N#Cc1ccc(Nc2ccc3[nH]c(=O)[nH]c3c2)c(Cl)c1,95.9% and 89.5%
CC(C)CC(=O)N1CCc2nc(-c3ccc(Br)cc3)nc(N(C)Cc3ccccc3)c2C1,150% and 141%
CS(=O)(=O)NCC[C@H](NC(=O)c1cncc2c1cnn2-c1ccc(F)cc1)c1ccnc(S(C)(=O)=O)c1,99.3% and 137%
C[C@@H]1CN(c2cc(-c3n[nH]c4ccc(OC5(C)CC5)cc34)ncn2)C[C@H](C)O1,120% and 95.1%
CNCc1ccccc1-c1csc([C@H](C)Nc2nc(C)nc3cc(OC)c(OC)cc23)c1,70.2% and 94.7%

# Series 2
# Structure (SMILES): Cc1nc(Nc2ncc(C(=O)Nc3c(C)cccc3Cl)s2)cc(N2CCN(CCO)CC2)n1
# Action: inhibitor
target,tested at,inhibition [%]
"TNK2 (Homo sapiens, UniProt Q07912)",10 µM,100
"ACVR1 (Homo sapiens, UniProt Q04771)",10 µM,96
"RET (Homo sapiens, UniProt P07949)",1 µM,< 50
"MAP3K10 (Homo sapiens, UniProt Q02779)",10 µM,< 50
"Ribosomal protein S6 kinase alpha-2, kinase domain 1 (RPS6KA2, Homo sapiens, UniProt Q15349)",10 µM,< 50
"CSNK1D (Homo sapiens, UniProt P48730)",10 µM,< 50
"MAPK14 (Homo sapiens, UniProt Q16539)",1 µM,100
"SRPK3 (Homo sapiens, UniProt Q9UPE1)",1 µM,< 50
"SBK3 (Homo sapiens, UniProt P0C264)",10 µM,< 50
"Non-receptor tyrosine-protein kinase TYK2, JH2 pseudokinase domain (TYK2, Homo sapiens, UniProt P29597)",1 µM,< 50

# Series 3
# SMILES: CC(=O)c1ccc(N2CCOCC2)cc1O
# Effect on: enzyme activity
# Action: inhibitor
# Tested at: 0.5 µM
# Baseline: control
target,remaining activity
"RPS6KA3 (Homo sapiens, UniProt P51812)",101%
"CAMKK1 (Homo sapiens, UniProt Q8N5S9)",124%
"SGK2 (Homo sapiens, UniProt Q9HBY8)",101%
"CLK1 (Homo sapiens, UniProt P49759)",110%
"JAK1 (Homo sapiens, UniProt P23458)",104%
"CLK2 (Homo sapiens, UniProt P49760)",102%
"IGF1R (Homo sapiens, UniProt P08069)",106%
"CSNK1E (Homo sapiens, UniProt P49674)",96.2%
"SRPK1 (Homo sapiens, UniProt Q96SB4)",90.7%
"PAK6 (Homo sapiens, UniProt Q9NQU5)",93.7%
"Cyclin-dependent kinase 2, with cyclin E (CDK2, Homo sapiens, UniProt P24941)",94.8%
"TYRO3 (Homo sapiens, UniProt Q06418)",89.1%
"SIK2 (Homo sapiens, UniProt Q9H0K1)",87%
"PRKCQ (Homo sapiens, UniProt Q04759)",99.5%
"TEC (Homo sapiens, UniProt P42680)",139%
"PAK1 (Homo sapiens, UniProt Q13153)",93.7%
"CAMK1 (Homo sapiens, UniProt Q14012)",102%
"EPHA2 (Homo sapiens, UniProt P29317)",107%
"FLT1 (Homo sapiens, UniProt P17948)",97.1%
"PRKCZ (Homo sapiens, UniProt Q05513)",111%
"CSNK1D (Homo sapiens, UniProt P48730)",100%
"MAP3K20 (Homo sapiens, UniProt Q9NYL2)",97.8%

# Series 4
# SMILES: COc1ccc(-c2c(Nc3ccccn3)[nH]c3c(C4=CCCCC4)c(-c4ccccc4)nn3c2=O)cc1
# Matrix: plasma
# Route: oral
refers to,host,dose,time,notes,median plasma concentration [ng/mL]
,human,100 mg once daily,2 h,cycle 1,5400
S-adenosylmethionine,human patients,400 mg once daily,"6 h, cycle 1",,20.2
,human,400 mg once daily,4 h,cycle 1,2570
S-adenosylmethionine,human patients,400 mg once daily,"8 h, cycle 1",,19.1
S-adenosylmethionine,human patients,400 mg once daily,"2 h, cycle 1",,20.1
,human,200 mg once daily,3 h,cycle 1,6390

# Excerpt of the above (series 4):
refers to,host,dose,time,notes,median plasma concentration [ng/mL]
,human,100 mg once daily,2 h,cycle 1,5400
S-adenosylmethionine,human patients,400 mg once daily,"6 h, cycle 1",,20.2
,human,400 mg once daily,4 h,cycle 1,2570
S-adenosylmethionine,human patients,400 mg once daily,"8 h, cycle 1",,19.1
S-adenosylmethionine,human patients,400 mg once daily,"2 h, cycle 1",,20.1
